Results pooled from the literature.
Each numbered part is a random draw from the data of one study; scales do not carry over between parts.
Sequence of UniProt P54760 (whole entry, looked up): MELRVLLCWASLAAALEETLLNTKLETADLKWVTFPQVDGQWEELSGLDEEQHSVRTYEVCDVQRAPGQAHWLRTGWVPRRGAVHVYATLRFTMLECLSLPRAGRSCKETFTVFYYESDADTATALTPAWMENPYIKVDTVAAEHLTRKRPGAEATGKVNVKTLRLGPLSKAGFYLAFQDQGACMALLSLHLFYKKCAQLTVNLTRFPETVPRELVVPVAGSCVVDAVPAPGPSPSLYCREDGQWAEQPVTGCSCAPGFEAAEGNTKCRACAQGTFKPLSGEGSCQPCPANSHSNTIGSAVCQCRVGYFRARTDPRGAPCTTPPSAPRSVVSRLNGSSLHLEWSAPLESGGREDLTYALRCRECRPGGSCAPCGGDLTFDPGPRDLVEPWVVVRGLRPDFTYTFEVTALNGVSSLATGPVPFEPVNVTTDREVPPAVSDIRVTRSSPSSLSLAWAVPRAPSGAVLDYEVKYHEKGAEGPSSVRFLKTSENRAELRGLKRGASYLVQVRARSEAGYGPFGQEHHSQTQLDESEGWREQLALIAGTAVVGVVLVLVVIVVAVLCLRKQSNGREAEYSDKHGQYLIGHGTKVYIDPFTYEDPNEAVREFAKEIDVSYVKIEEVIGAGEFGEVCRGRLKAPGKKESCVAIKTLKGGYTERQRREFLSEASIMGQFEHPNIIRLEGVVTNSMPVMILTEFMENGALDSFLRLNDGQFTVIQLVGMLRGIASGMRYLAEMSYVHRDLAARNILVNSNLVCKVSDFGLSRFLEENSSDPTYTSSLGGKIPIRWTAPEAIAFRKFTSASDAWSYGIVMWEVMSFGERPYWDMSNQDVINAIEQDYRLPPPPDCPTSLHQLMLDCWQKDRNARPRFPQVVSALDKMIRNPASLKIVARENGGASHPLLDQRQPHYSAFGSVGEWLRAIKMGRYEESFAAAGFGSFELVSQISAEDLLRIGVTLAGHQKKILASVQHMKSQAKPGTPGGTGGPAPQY
Sequence of UniProt P42336 (whole entry, looked up): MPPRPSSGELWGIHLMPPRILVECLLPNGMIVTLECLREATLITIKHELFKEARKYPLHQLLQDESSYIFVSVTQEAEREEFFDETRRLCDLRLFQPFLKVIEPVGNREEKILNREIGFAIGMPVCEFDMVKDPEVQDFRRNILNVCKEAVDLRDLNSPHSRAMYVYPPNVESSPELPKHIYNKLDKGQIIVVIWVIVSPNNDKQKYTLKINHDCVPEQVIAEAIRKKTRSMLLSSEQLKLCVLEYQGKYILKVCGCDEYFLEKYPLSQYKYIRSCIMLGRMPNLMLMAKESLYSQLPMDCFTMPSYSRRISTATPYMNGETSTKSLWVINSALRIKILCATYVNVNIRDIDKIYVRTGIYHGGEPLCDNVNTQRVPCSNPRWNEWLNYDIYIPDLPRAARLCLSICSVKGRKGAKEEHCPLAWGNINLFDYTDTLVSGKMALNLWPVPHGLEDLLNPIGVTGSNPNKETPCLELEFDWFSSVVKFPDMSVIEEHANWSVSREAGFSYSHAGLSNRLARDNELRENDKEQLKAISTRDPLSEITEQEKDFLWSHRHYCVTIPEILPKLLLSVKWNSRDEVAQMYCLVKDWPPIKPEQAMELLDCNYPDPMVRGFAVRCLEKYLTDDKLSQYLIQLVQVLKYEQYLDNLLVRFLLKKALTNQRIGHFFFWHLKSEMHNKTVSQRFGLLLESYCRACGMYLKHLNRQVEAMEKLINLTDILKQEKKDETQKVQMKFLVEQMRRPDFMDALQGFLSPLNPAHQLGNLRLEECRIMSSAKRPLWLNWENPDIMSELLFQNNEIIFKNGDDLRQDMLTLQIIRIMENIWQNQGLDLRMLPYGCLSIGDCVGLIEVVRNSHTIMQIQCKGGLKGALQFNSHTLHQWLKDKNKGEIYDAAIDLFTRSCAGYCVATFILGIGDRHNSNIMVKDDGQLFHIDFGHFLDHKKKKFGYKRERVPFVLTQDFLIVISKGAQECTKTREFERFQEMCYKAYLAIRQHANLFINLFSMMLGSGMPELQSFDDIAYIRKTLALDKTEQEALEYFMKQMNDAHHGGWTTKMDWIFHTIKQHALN
Sequence of UniProt P49841 (whole entry, looked up): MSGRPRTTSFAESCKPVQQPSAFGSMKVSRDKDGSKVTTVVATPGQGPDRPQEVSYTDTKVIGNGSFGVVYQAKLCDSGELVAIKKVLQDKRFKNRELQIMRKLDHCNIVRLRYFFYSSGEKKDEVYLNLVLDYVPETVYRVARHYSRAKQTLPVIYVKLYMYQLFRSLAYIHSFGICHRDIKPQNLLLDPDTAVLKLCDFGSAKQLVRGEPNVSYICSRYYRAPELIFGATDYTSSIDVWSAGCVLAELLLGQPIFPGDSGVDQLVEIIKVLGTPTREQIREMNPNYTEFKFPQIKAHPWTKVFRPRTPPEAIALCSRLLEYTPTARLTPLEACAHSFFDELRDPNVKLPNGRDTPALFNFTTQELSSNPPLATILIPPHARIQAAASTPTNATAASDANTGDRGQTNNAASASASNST
Sequence of UniProt P06241 (whole entry, looked up): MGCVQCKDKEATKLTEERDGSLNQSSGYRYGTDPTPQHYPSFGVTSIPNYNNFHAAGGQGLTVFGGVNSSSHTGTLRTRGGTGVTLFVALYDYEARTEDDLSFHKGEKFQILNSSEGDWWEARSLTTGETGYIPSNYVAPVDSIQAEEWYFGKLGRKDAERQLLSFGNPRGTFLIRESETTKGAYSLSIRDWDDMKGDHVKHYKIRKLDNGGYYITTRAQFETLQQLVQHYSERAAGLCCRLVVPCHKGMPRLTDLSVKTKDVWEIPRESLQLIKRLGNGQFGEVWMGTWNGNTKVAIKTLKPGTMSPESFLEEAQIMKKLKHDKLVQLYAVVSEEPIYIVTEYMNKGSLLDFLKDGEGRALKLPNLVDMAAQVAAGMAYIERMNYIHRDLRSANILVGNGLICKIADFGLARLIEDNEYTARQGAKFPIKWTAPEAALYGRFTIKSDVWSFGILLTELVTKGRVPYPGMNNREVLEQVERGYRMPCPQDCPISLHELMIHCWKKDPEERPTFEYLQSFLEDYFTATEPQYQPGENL
Sequence of UniProt P36507 (whole entry, looked up): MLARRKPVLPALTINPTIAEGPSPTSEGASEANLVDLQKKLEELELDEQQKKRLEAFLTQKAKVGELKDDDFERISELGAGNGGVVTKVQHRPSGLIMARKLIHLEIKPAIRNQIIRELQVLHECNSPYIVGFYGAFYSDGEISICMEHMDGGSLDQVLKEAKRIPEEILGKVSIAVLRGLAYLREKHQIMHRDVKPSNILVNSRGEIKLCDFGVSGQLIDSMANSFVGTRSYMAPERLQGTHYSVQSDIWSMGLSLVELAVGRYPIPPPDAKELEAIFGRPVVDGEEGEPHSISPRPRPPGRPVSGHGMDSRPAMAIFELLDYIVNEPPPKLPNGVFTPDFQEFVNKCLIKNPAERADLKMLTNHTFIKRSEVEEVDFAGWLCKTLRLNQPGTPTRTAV

Study 1
SMILES: C[C@H](c1ccnc(Nc2nc3ccc(-c4cc(N(C)C)ncn4)cc3[nH]2)c1)N1CCN(C(=O)CC(F)(F)F)CC1
Tested at: 0.1 µM
The remaining binding was 79% (Tyrosine-protein kinase Fyn (FYN, Homo sapiens, UniProt P06241); cell-free assay, competition with immobilised ligand).
It gave 100% for remaining binding (Phosphorylase b kinase gamma catalytic chain, skeletal muscle/heart isoform (PHKG1, Homo sapiens, UniProt Q16816); cell-free assay, competition with immobilised ligand).
Ribosomal protein S6 kinase alpha-1, N-terminal kinase domain (RPS6KA1, Homo sapiens, UniProt Q15418); cell-free assay, competition with immobilised ligand — remaining binding: 100%.
Megakaryocyte-associated tyrosine-protein kinase (MATK, Homo sapiens, UniProt P42679); cell-free assay, competition with immobilised ligand — remaining binding: 95%.
For Tyrosine-protein kinase Yes (YES1, Homo sapiens, UniProt P07947); cell-free assay, competition with immobilised ligand: remaining binding read 92%.
The remaining binding was 100% (Proto-oncogene tyrosine-protein kinase ROS (ROS1, Homo sapiens, UniProt P08922); cell-free assay, competition with immobilised ligand).
Serine/threonine-protein kinase PAK 5 (PAK5, Homo sapiens, UniProt Q9P286); cell-free assay, competition with immobilised ligand — remaining binding: 100%.
The remaining binding was 79% (Atypical kinase COQ8B, mitochondrial (COQ8B, Homo sapiens, UniProt Q96D53); cell-free assay, competition with immobilised ligand).
For Casein kinase I isoform gamma-1 (CSNK1G1, Homo sapiens, UniProt Q9HCP0); cell-free assay, competition with immobilised ligand: remaining binding read 100%.
For Non-receptor tyrosine-protein kinase TNK1 (TNK1, Homo sapiens, UniProt Q13470); cell-free assay, competition with immobilised ligand: remaining binding read 100%.
It gave 93% for remaining binding (Cyclin-dependent kinase 19 (CDK19, Homo sapiens, UniProt Q9BWU1); competition binding).
The remaining binding was 100% (Phosphatidylinositol 4,5-bisphosphate 3-kinase catalytic subunit alpha isoform (PIK3CA, Homo sapiens, UniProt P42336); cell-free assay, competition with immobilised ligand).
For Bone morphogenetic protein receptor type-1A (BMPR1A, Homo sapiens, UniProt P36894); binding, competition with immobilised ligand: remaining binding read 97%.
The remaining binding was 96% (Epidermal growth factor receptor (EGFR, Homo sapiens, UniProt P00533, del752-759); cell-free assay, competition with immobilised ligand).
It gave 100% for remaining binding (Non-receptor tyrosine-protein kinase TYK2, JH1 (TYK2, Homo sapiens, UniProt P29597); cell-free assay, competition with immobilised ligand).
For Receptor-type tyrosine-protein kinase FLT3 (FLT3, Homo sapiens, UniProt P36888, D835Y); cell-free assay, competition with immobilised ligand: remaining binding read 41%.
Cyclin-dependent kinase 9 (CDK9, Homo sapiens, UniProt P50750); cell-free assay, competition with immobilised ligand — remaining binding: 100%.
Ribosomal protein S6 kinase alpha-5, N-terminal kinase domain (RPS6KA5, Homo sapiens, UniProt O75582); cell-free assay, competition with immobilised ligand — remaining binding: 88%.
The remaining binding was 94% (Serine/threonine-protein kinase Sgk1 (SGK1, Homo sapiens, UniProt O00141); cell-free assay, competition with immobilised ligand).
Tyrosine-protein kinase receptor TYRO3 (TYRO3, Homo sapiens, UniProt Q06418); cell-free assay, competition with immobilised ligand — remaining binding: 96%.
It gave 100% for remaining binding (Dual serine/threonine and tyrosine protein kinase (DSTYK, Homo sapiens, UniProt Q6XUX3); cell-free assay, competition with immobilised ligand).
The remaining binding was 100% (Ephrin type-B receptor 4 (EPHB4, Homo sapiens, UniProt P54760); cell-free assay, competition with immobilised ligand).
For Epidermal growth factor receptor (EGFR, Homo sapiens, UniProt P00533, del746-750); cell-free assay, competition with immobilised ligand: remaining binding read 96%.

Study 2
Target: Calcium/calmodulin-dependent protein kinase type II subunit alpha (CAMK2A, Homo sapiens, UniProt Q9UQM7)
Sequence of UniProt Q9UQM7 (whole entry, looked up): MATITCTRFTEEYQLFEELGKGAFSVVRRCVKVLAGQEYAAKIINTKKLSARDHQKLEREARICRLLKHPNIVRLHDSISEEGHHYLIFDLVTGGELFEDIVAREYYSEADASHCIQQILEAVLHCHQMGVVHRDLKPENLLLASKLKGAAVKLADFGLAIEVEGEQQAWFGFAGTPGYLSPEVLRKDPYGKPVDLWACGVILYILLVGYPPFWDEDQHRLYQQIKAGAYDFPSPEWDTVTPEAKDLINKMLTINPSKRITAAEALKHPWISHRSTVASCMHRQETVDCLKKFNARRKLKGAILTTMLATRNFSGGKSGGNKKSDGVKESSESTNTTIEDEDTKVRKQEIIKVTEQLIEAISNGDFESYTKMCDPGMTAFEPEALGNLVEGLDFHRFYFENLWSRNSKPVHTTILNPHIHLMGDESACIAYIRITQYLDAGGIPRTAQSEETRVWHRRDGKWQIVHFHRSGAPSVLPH
Effect on: enzyme activity
Mode: inhibitor
Tested at: 10 µM
For N[C@H](C(=O)O)[C@@H]1CC(Cl)=NO1, the inhibition was -16%.
O=c1c(-c2ccc(O)cc2)coc2cc(O[C@@H]3O[C@H](CO)[C@@H](O)[C@H](O)[C@H]3O)ccc12 has an inhibition of 16%.
O=c1cc(-c2ccccc2)oc2cc(O)cc(O)c12 gave an inhibition of -23%.
The inhibition of Oc1cccc(-c2c3nc(c(-c4cccc(O)c4)c4ccc([nH]4)c(-c4cccc(O)c4)c4nc(c(-c5cccc(O)c5)c5ccc2[nH]5)CC4)C=C3)c1 is reported as 17%.
CC(C)OC(=O)C(C(=O)OC(C)C)=C1SC=CS1 has an inhibition of 4%.
CCCCC/C=C/C(=O)O gave an inhibition of -7%.
The inhibition of COc1cc2oc(=O)ccc2cc1O is reported as -18%.

Study 3
SMILES: C=CCc1ccc(O)c(-c2cc(CC=C)ccc2O)c1
Effect on: chloride current
ANO1 del476-501/E659A: Anoctamin-1 (ANO1, Homo sapiens, UniProt Q5XXA6, del476-501/E659A)
Sequence of UniProt Q5XXA6 (whole entry, unmodified, looked up): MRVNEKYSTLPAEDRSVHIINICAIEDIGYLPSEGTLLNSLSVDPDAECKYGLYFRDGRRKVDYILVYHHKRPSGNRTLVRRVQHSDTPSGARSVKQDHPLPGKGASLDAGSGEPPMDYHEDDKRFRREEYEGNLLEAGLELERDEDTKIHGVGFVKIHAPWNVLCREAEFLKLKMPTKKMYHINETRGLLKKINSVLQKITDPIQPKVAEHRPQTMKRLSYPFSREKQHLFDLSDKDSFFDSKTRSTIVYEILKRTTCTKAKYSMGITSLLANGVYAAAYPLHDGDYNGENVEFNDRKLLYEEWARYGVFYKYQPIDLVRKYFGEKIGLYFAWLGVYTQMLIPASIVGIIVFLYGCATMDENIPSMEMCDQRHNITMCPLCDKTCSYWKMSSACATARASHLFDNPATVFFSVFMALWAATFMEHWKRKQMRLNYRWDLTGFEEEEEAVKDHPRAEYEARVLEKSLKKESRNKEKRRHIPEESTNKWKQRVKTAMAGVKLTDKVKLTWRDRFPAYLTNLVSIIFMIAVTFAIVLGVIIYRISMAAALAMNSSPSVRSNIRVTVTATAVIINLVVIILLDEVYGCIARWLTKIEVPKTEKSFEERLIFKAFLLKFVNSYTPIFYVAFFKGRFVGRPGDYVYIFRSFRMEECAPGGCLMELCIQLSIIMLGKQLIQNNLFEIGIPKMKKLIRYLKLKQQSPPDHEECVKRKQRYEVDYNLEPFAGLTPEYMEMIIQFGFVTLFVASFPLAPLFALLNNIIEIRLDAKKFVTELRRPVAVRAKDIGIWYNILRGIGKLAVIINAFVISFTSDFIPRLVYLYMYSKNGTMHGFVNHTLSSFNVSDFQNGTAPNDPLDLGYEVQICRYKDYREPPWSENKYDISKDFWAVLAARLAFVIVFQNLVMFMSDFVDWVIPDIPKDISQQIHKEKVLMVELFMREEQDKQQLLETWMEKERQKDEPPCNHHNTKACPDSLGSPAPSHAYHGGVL
ANO1 del476-501/E659A; inside-out patch clamp; 30 µM, membrane voltage 20 mV — normalized current: 0.166.
For Anoctamin-1 (ANO1, Homo sapiens, UniProt Q5XXA6, del476-501/R541A); inhibitor, whole-cell voltage clamp; 10 µM, R515A mutant: normalized current read 0.994.
The normalized current was 0.195 (Anoctamin-1 (ANO1, Homo sapiens, UniProt Q5XXA6); inside-out patch clamp; 30 µM, membrane voltage 20 mV).
Anoctamin-1 (ANO1, Homo sapiens, UniProt Q5XXA6, del476-501/E659A/K629A); inside-out patch clamp; 30 µM, membrane voltage 80 mV — normalized current: 0.629.
It gave 0.566 for normalized current (ANO1 del476-501/E659A; inside-out patch clamp; 30 µM, membrane voltage 80 mV).
For Anoctamin-1 (ANO1, Homo sapiens, UniProt Q5XXA6, del476-501/K629A); inhibitor, inside-out patch clamp; 30 µM, K603A mutant at -100 mV: normalized current read -0.601.
It gave -0.855 for normalized current (ANO1 del476-501/E659A; inhibitor, inside-out patch clamp; 30 µM, E633A mutant at -80 mV).

Study 4
SMILES: Cc1cc2ncc(-c3ccccc3)nc2cc1C
Effect on: enzyme activity
Mode: inhibitor
Tested at: 0.5 µM
Baseline: control
Serine/threonine-protein kinase Nek6 (NEK6, Homo sapiens, UniProt Q9HC98) — remaining activity: 101%.
Macrophage-stimulating protein receptor (MST1R, Homo sapiens, UniProt Q04912) — remaining activity: 99.4%.
Serine/threonine-protein kinase ULK3 (ULK3, Homo sapiens, UniProt Q6PHR2) — remaining activity: 86.4%.
Tyrosine-protein kinase JAK3 (JAK3, Homo sapiens, UniProt P52333) — remaining activity: 101%.
Dual specificity mitogen-activated protein kinase kinase 2 (MAP2K2, Homo sapiens, UniProt P36507) — remaining activity: 97.6%.
Mitogen-activated protein kinase kinase kinase 5 (MAP3K5, Homo sapiens, UniProt Q99683) — remaining activity: 107%.
The remaining activity was 98% (Fibroblast growth factor receptor 3 (FGFR3, Homo sapiens, UniProt P22607)).
The remaining activity was 99.1% (Tyrosine-protein kinase FRK (FRK, Homo sapiens, UniProt P42685)).
It gave 95.9% for remaining activity (MAP kinase-activated protein kinase 2 (MAPKAPK2, Homo sapiens, UniProt P49137)).
It gave 109% for remaining activity (Ephrin type-A receptor 3 (EPHA3, Homo sapiens, UniProt P29320)).
Glycogen synthase kinase-3 beta (GSK3B, Homo sapiens, UniProt P49841) — remaining activity: 79.5%.
The remaining activity was 97.7% (Activin receptor type-1B (ACVR1B, Homo sapiens, UniProt P36896)).
For Angiopoietin-1 receptor (TEK, Homo sapiens, UniProt Q02763): remaining activity read 99.7%.

Excerpt of the above (study 3):
It gave -0.855 for normalized current (ANO1 del476-501/E659A; inhibitor, inside-out patch clamp; 30 µM, E633A mutant at -80 mV).
For Anoctamin-1 (ANO1, Homo sapiens, UniProt Q5XXA6, del476-501/K629A); inhibitor, inside-out patch clamp; 30 µM, K603A mutant at -100 mV: normalized current read -0.601.
The normalized current was 0.195 (Anoctamin-1 (ANO1, Homo sapiens, UniProt Q5XXA6); inside-out patch clamp; 30 µM, membrane voltage 20 mV).
Anoctamin-1 (ANO1, Homo sapiens, UniProt Q5XXA6, del476-501/E659A/K629A); inside-out patch clamp; 30 µM, membrane voltage 80 mV — normalized current: 0.629.
For Anoctamin-1 (ANO1, Homo sapiens, UniProt Q5XXA6, del476-501/R541A); inhibitor, whole-cell voltage clamp; 10 µM, R515A mutant: normalized current read 0.994.
It gave 0.566 for normalized current (ANO1 del476-501/E659A; inside-out patch clamp; 30 µM, membrane voltage 80 mV).
